Experimental data collected from several papers.
Each numbered part is a random draw from the data of one study; scales do not carry over between parts. pIC50: −log10 of the molar value.
Chain of UniProt Q9NY57 (whole entry, looked up): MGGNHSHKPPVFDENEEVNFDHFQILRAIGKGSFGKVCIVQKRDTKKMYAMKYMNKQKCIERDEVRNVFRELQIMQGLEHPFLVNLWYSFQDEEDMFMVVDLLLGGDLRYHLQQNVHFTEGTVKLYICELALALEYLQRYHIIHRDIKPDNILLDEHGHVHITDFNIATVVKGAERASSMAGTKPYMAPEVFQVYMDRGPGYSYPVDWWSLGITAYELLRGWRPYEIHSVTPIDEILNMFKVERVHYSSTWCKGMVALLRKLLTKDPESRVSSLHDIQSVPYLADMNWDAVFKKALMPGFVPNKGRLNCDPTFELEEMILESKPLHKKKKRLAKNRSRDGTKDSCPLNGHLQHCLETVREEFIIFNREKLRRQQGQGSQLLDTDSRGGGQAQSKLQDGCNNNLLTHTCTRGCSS
Chain of UniProt O15146 (whole entry, looked up): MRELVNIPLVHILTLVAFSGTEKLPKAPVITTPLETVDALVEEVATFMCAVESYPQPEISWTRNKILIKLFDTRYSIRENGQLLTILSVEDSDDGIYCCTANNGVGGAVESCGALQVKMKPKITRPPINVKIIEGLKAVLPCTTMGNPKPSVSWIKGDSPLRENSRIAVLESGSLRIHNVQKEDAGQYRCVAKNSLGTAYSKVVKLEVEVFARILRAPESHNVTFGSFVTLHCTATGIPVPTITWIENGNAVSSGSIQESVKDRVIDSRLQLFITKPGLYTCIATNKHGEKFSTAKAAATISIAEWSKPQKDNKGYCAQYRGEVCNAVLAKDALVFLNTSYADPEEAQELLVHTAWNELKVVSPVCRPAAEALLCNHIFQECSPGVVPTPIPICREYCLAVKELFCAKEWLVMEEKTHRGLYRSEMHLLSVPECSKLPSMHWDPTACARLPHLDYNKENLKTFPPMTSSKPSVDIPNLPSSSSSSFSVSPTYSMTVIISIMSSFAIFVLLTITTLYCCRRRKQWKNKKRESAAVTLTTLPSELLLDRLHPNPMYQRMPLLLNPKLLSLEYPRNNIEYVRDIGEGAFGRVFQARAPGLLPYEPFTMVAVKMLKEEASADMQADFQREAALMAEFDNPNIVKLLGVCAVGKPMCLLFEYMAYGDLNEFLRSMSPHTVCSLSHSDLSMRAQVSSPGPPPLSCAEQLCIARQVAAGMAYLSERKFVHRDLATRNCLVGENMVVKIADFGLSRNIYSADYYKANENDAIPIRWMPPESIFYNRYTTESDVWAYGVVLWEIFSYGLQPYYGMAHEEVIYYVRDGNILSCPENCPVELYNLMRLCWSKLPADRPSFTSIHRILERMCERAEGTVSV
Chain of UniProt P54764 (whole entry, looked up): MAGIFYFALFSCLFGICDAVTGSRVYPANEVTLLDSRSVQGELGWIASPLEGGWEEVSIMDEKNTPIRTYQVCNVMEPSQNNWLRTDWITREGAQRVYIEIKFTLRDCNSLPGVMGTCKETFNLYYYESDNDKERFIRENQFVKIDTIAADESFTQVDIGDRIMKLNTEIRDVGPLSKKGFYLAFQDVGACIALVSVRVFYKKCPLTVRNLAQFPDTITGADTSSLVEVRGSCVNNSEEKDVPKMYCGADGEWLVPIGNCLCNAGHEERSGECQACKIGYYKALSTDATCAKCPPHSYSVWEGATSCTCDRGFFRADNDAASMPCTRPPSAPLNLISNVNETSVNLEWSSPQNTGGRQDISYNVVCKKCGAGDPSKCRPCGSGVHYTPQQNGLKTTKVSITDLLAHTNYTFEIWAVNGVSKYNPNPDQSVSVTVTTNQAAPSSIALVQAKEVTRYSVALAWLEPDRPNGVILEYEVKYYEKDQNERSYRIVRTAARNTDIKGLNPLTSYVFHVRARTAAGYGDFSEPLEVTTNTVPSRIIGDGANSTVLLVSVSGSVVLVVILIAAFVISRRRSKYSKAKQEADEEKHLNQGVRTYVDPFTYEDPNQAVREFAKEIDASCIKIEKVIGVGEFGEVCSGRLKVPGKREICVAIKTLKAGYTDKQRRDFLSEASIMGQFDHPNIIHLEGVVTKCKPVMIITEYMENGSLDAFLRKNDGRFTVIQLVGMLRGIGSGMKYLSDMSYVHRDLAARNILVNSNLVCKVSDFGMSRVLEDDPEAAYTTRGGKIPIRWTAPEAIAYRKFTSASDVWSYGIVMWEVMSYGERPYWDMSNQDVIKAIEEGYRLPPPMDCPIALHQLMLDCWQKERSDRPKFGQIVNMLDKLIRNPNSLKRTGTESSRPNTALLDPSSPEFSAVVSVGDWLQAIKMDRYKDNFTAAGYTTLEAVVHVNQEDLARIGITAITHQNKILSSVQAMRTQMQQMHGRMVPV
Chain of UniProt Q02156 (whole entry, looked up): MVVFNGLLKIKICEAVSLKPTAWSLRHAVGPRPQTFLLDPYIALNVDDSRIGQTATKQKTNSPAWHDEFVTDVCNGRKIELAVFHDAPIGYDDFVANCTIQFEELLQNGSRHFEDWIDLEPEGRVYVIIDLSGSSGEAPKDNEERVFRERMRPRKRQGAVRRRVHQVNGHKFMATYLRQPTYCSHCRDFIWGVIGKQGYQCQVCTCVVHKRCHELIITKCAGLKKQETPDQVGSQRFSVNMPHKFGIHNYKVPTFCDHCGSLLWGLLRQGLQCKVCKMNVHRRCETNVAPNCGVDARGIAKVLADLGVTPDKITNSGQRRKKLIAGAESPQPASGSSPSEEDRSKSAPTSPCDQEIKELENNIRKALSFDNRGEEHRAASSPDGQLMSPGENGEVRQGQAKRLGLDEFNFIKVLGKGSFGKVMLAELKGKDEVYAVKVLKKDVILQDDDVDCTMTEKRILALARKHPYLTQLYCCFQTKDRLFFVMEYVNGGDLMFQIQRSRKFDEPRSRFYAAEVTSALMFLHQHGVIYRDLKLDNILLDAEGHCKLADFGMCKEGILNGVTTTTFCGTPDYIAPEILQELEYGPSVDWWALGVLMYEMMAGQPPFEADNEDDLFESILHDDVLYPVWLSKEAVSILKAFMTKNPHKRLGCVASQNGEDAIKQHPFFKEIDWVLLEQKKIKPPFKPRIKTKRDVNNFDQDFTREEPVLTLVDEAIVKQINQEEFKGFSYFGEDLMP
Chain of UniProt P41743 (whole entry, looked up): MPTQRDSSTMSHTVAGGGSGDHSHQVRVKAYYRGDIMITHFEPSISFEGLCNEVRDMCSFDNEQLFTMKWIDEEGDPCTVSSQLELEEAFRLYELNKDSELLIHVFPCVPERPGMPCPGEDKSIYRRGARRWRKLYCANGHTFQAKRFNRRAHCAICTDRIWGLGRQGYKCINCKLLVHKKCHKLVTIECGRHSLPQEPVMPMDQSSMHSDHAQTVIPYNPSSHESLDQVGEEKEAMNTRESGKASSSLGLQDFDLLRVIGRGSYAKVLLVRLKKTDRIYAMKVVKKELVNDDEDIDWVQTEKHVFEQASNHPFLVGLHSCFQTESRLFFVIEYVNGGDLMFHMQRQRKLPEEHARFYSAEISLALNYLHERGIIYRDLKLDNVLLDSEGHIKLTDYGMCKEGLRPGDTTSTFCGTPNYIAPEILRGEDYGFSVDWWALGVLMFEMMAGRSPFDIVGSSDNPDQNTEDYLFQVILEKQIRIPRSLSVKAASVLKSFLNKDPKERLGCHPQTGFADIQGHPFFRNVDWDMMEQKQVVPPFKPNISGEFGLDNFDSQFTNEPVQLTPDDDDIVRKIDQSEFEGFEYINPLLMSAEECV

Series 1
Target: Tyrosine-protein kinase CSK (CSK, Homo sapiens, UniProt P41240)
Chain of UniProt P41240 (whole entry, looked up): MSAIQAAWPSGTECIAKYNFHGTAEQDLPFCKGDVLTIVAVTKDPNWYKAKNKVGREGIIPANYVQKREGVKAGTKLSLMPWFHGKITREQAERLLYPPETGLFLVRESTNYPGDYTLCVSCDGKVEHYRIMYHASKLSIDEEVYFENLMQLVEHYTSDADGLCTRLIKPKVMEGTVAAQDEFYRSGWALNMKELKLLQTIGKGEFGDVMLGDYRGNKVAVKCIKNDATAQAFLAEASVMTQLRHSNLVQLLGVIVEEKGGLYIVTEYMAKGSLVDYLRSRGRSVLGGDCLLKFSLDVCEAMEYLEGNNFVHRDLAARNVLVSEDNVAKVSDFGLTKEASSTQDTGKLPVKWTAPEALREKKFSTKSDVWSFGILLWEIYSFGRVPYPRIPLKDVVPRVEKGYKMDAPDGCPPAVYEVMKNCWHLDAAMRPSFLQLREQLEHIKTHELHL
Observed: enzyme activity
Mode: inhibitor
Tested at: 0.5 µM
Relative to: control
Compound | remaining activity
COc1cc2ncnc(Nc3ccc(Oc4ccccc4)cc3)c2cc1OC | 18.8%
Cc1cccc(-c2[nH]c(C(C)(C)C)nc2-c2ccc3c(c2)OCO3)n1 | 102%
CO[C@H]1C[C@@H]2CC[C@@H](C)[C@@](O)(O2)C(=O)C(=O)N2CCCC[C@H]2C(=O)O[C@H]([C@H](C)C[C@@H]2CC[C@@H](O)[C@H](OC)C2)CC(=O)[C@H](C)/C=C(\C)[C@@H](O)[C@@H](OC)C(=O)[C@H](C)C[C@H](C)/C=C/C=C/C=C/1C | 101%
Cn1c2ccccc2c2c3c(c4c5ccccc5n(CCC#N)c4c21)CNC3=O | 81%
Cn1sc(=O)n(Cc2ccccc2)c1=O | 101%
O=C(CCCc1ccc(-c2ccccc2F)cc1)Nc1ccc(O)cc1 | 88%
Nc1ncnc2n[nH]c(Nc3ccc(F)cc3)c12 | 80.2%
COc1ccc(OC)c2c(=S)c3ccccc3[nH]c12 | 103%
Cc1ccc(Nc2nccc(N(C)c3ccc4c(C)n(C)nc4c3)n2)cc1S(N)(=O)=O | 93%
N#CC(C#N)=C(N)/C(C#N)=C/c1ccc(O)cc1 | 97.6%
CNC(=O)c1cc(Oc2ccc(NC(=O)Nc3ccc(Cl)c(C(F)(F)F)c3)cc2)ccn1 | 90.3%
O=S(=O)(c1cccc2cnccc12)N1CCCNCC1 | 87.9%
Cc1nc(-c2ccccc2)c(-c2ccncc2)o1 | 106%
Nc1ccc2ncnc(NCCc3ccc(Oc4ccccc4)cc3)c2c1 | 96.7%
CN(C)c1ccc(C=C2C(=O)Nc3ccccc32)cc1 | 96.9%

Series 2
Compound: CNC(=O)Nc1ccc2c(c1)[C@@]1(CC2)OC(=O)N(CC(=O)N(Cc2ccc(F)cc2)[C@@H](C)C(F)(F)F)C1=O
Tested at: 1 µM
target | observed | technique | remaining binding
PLK4 (Homo sapiens, UniProt O00444) | cell-free assay | competition with immobilised ligand | 100%
NUAK1 (Homo sapiens, UniProt O60285) | cell-free assay | competition with immobilised ligand | 88%
MUSK (Homo sapiens, UniProt O15146) | cell-free assay | competition with immobilised ligand | 100%
CDC42BPG (Homo sapiens, UniProt Q6DT37) |  | competition binding | 88%
FLT3 (Homo sapiens, UniProt P36888, F691L/ITD) | cell-free assay | competition with immobilised ligand | 99%
STK32B (Homo sapiens, UniProt Q9NY57) | cell-free assay | competition with immobilised ligand | 67%
COQ8A (Homo sapiens, UniProt Q8NI60) | cell-free assay | competition with immobilised ligand | 88%
HIPK4 (Homo sapiens, UniProt Q8NE63) | cell-free assay | competition with immobilised ligand | 100%
PRKCE (Homo sapiens, UniProt Q02156) | cell-free assay | competition with immobilised ligand | 99%
PRKCI (Homo sapiens, UniProt P41743) | cell-free assay | competition with immobilised ligand | 91%
BRSK2 (Homo sapiens, UniProt Q8IWQ3) | cell-free assay | competition with immobilised ligand | 90%
EPHA4 (Homo sapiens, UniProt P54764) | cell-free assay | competition with immobilised ligand | 86%
LRRK2 (Homo sapiens, UniProt Q5S007) | cell-free assay | competition with immobilised ligand | 71%
MAP3K20 (Homo sapiens, UniProt Q9NYL2) | cell-free assay | competition with immobilised ligand | 93%
CDKL2 (Homo sapiens, UniProt Q92772) | cell-free assay | competition with immobilised ligand | 83%

Series 3
Species: human
Sample: microsomes or S9
Tested at: 2 µM
Time: 0.5 h
SMILES | remaining compound
CCN(CC)c1nc2c(S(=O)(=O)c3ccccc3)nnn2c2ccsc12 | 16.2%
O=c1c2ccccc2nc(NCCCCc2ccccc2)n1-c1ccccc1 | 0.503%
N#Cc1ccc(Cn2cnc3c([nH]c4ccccc43)c2=O)cc1 | 18.5%
Cn1ccc(Cn2nnn(-c3cccs3)c2=O)cc1=O | 86.5%
CS(=O)(=O)N(C#Cc1ccccc1F)Cc1ccccc1 | 7.03%
Nc1cccc(Nc2nc(Cl)nc3[nH]ccc23)c1 | 59.7%
CCC(CO)NCc1ccc(OCc2cccs2)cc1 (centres unmarked) | 9.61%
Cc1ccc(OCCN2CCOCC2)c(NC(=O)c2cc3cc(C)ccc3n2C)c1 | 11.9%

Series 4
SMILES: Cc1ccc(NC(=O)c2ccnc(C(F)(F)F)c2)cc1-c1cc(OCCO)nc(N2CCOCC2)c1
target | pIC50
TIE1 (Homo sapiens, UniProt P35590) | < 5.52
EPHB4 (Homo sapiens, UniProt P54760) | < 5.52
BRAF (Homo sapiens, UniProt P15056, V600E) | 8.27
ABL1 (Homo sapiens, UniProt P00519) | < 5.52
FLT3 (Homo sapiens, UniProt P36888) | < 5.52
SRC (Homo sapiens, UniProt P12931) | < 5.52

Repeated from above (series 3):
SMILES | remaining compound
CCN(CC)c1nc2c(S(=O)(=O)c3ccccc3)nnn2c2ccsc12 | 16.2%
O=c1c2ccccc2nc(NCCCCc2ccccc2)n1-c1ccccc1 | 0.503%
N#Cc1ccc(Cn2cnc3c([nH]c4ccccc43)c2=O)cc1 | 18.5%
Cn1ccc(Cn2nnn(-c3cccs3)c2=O)cc1=O | 86.5%
CS(=O)(=O)N(C#Cc1ccccc1F)Cc1ccccc1 | 7.03%
